Published values collected from several papers.
Lines come from different studies, so protocols differ. Numbers after ± are the reported error.
Organism: HIV-1

Compound	test	test system	conditions	how to read	measurement	value
O=C(NCc1ccc(F)cc1F)c1c(O)c2cccnc2n(O)c1=O	viral replication, lentiviral vector	wild-type integrase	5% FBS		EC50	0.0062 ± 0.0029 µM
N=C(N)NCCC[C@@H]1NC(=O)[C@H](Cc2ccc(O)cc2)NC(=O)[C@H](CO)N2CC[C@@H](C2=O)N2CC[C@H](NC(=O)[C@@H]3CCCN3C(=O)[C@H](Cc3ccc(O)cc3)NC1=O)C2=O	item: GagPol and Env mRNA	HeLa-CD4	10 µM, 24 h		nuclear to cytoplasmic mRNA ratio	no effect
Cc1nc([C@H](NC(=O)c2ccc(-c3ccc(Cl)cc3)[nH]2)[C@@H]2CCCCN2)sc1CO	viral entry	TZM-bl, panel of 56 Env pseudoviruses	up to 2 µM		sensitive viruses	68%
Cl.Cl.Cl.Cl.Cl.Cl.Cl.Cl.Cl.Cl.Cl.Cl.NC[C@@H]1O[C@H](O[C@H]2[C@@H](O)[C@H](O[C@@H]3[C@@H](O)[C@H](N)C[C@H](N)[C@H]3O[C@H]3O[C@H](CN)[C@@H](O)[C@H](O)[C@H]3N)O[C@@H]2Cn2cc(CCCCCCc3cn(C[C@H]4O[C@@H](O[C@@H]5[C@@H](O)[C@H](N)C[C@H](N)[C@H]5O[C@H]5O[C@H](CN)[C@@H](O)[C@H](O)[C@H]5N)[C@H](O)[C@@H]4O[C@H]4O[C@@H](CN)[C@@H](O)[C@H](O)[C@H]4N)nn3)nn2)[C@H](N)[C@@H](O)[C@@H]1O	HIV cytopathic effect, neutral red	MT-2			maximum protection	33%
CC(=O)CCC1C(=O)NC(C(C)C)C(=O)NC(Cc2cc(O)cc(F)c2)C(=O)N2CCCC(N2)C(=O)OC(C(C)=CC=CC(=O)N2CCCCO2)CC=CC=CC(O)C(C)C1O (centres unmarked)	viral replication	CD4 HeLa			maximal inhibition	> 95%
CC(C)C[C@@H]1NC(=O)[C@H](CCCCN)NC(=O)[C@H](CC(C)C)NC(=O)[C@@](C)(NC(=O)[C@H](Cc2ccccc2)NC(=O)[C@H](Cc2ccc(O)cc2)NC(=O)[C@H](C)NC(=O)[C@@H](N)[C@@H](C)O)CCCC=CCCC[C@@](C)(C(=O)NCC(=O)N[C@@H](CCCNC(=N)N)C(=O)N[C@@H](Cc2c[nH]c3ccccc23)C(N)=O)NC1=O					EC50	20 µM
CC(=O)N[C@@H](CS)C(=O)N[C@@H](CO)C(=O)N[C@@H](CO)C(=O)N[C@@H](Cc1c[nH]c2ccccc12)C(=O)N[C@@H](Cc1ccccc1)C(=O)N1CCC[C@H]1C(=O)N[C@@H](Cc1ccccc1)C(=O)N[C@@H](CO)C(=O)N[C@@H](CCC(N)=O)C(=O)N[C@@H](Cc1ccc(O)cc1)C(=O)N[C@@H](CCC(N)=O)C(=O)N[C@@H](Cc1c[nH]c2ccccc12)C(=O)N[C@@H](Cc1c[nH]c2ccccc12)C(=O)N[C@@H](CCCCN)C(N)=O		YU2 pseudovirus (R5)	concentration not given		neutralisation activity	active
CN1CCn2cc(C(=O)NCc3ccc(F)cc3F)c(=O)c(O)c2C1=O	single-round infection		integrase G140S/Q148H vector	reference: cpd over dolutegravir	fold loss of potency	~17 fold
